Assay results gathered from unrelated publications.
Numbered parts are unrelated; each lists some results of a single study. Substitutions count along the parent as printed.

Series 1 — target: CEP164, C-terminal peptide (human); method: DHFR complementation, deep sequencing; medium: yeast; baseline: wild type; reading: higher = weaker binding
Notes: single substitutions, model-inferred values
Starting sequence: PDZK1, PDZ domain 2 (human); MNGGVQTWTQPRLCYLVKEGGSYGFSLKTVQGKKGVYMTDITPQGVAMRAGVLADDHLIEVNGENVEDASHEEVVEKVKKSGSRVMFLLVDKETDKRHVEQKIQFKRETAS; partner HNRVKVYRF
Change	binding free energy change
Q104C	-0.264 kcal/mol
K33Y	0.32 kcal/mol
Y37I	0.47 kcal/mol
S111T	-0.0688 kcal/mol
E60H	0.486 kcal/mol
G51Y	0.918 kcal/mol
G51S	1.04 kcal/mol
L58I	0.0921 kcal/mol
Q31M	-0.122 kcal/mol
K18T	0.382 kcal/mol
G20S	0.148 kcal/mol
V17N	0.179 kcal/mol
A47Q	1.43 kcal/mol
E73C	0.0989 kcal/mol
Y15N	0.102 kcal/mol
P43L	0.512 kcal/mol
T42P	0.531 kcal/mol
G21I	-0.0381 kcal/mol
G32P	0.959 kcal/mol
T109M	-0.18 kcal/mol
I103E	-0.0943 kcal/mol
D68W	0.0228 kcal/mol
T94C	0.00167 kcal/mol

Series 2 — method: aptamer microarray, sandwich; molecule type: DNA with 2'F-ANA; medium: in vitro; tested at: 200 nM; added: Cy3 exosite-II aptamer, 400 nM; reading: higher = stronger binding; oligonucleotide: GGTTGGTGTGGTTGG
Target: Prothrombin, mature alpha-thrombin (F2, Homo sapiens, UniProt P00734)
Notes: whole 15-mer aptamer, many near background
Modification	mean fluorescence intensity
2'F-ANA at 1 2 3 5 7 9 10 11 12 14	46.2 a.u.
2'F-ANA at 1 2 9 10 11 12 13	54.5 a.u.
2'F-ANA at 1 2 3 4 5 6 7 8 10 11 13 15	56.7 a.u.
2'F-ANA at 1 3 4 7 8 9 10 12	107 a.u.
2'F-ANA at 3 6 7 12 13 15	1190 a.u.
2'F-ANA at 4 5 7 10 14	43 a.u.
2'F-ANA at 4 5 7 11 12	127 a.u.
2'F-ANA at 1 6 10 13 15	56.7 a.u.
2'F-ANA at 1 3 4 5 7 9 10 11 13 15	45.1 a.u.
2'F-ANA at 1 3 8 12 13 14	144 a.u.
2'F-ANA at 2 3 4 6 7 8 11 15	496 a.u.
2'F-ANA at 2 3 6 7 9 12 13 15	723 a.u.
2'F-ANA at 1 3 4 5 6 8 11 14	48.7 a.u.
2'F-ANA at 1 2 4 5 8 11 13 15	51.6 a.u.
2'F-ANA at 1 4 5 6 12	117 a.u.
2'F-ANA at 1 3 7 9 10 11 13	75.3 a.u.
2'F-ANA at 1 5 7 8 9 10 11 12 14 15	50.3 a.u.
2'F-ANA at 4 5 6 8 9 15	74.3 a.u.
2'F-ANA at 2 5 6 7 9 11 15	94.4 a.u.
2'F-ANA at 14 15	220 a.u.

Series 3 — method: RNA Bind-n-Seq; molecule type: RNA; medium: in vitro; tested at: 1 µM; notes: whole 134-nt RNA, ends assumed; added: 150 mM KCl; baseline: input library; reading: higher = stronger binding
Target: Ras GTPase-activating protein-binding protein 1, C-terminal RGG region (G3BP1, Homo sapiens, UniProt Q13283)
UniProt Q13283, sequence (whole entry, looked up): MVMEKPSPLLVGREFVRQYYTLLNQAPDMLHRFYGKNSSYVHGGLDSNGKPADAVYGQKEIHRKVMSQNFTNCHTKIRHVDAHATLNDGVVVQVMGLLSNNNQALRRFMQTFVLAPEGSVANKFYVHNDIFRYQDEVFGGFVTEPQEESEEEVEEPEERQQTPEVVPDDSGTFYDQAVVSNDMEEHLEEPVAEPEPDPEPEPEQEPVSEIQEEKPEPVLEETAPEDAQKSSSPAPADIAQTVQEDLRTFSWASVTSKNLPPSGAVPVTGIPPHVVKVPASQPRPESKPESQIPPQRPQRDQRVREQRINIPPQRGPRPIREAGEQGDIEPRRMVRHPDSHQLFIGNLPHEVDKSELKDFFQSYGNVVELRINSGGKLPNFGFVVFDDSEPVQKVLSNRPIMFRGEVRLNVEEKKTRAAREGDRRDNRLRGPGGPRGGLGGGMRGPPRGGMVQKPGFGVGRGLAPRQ
All sequences stand within: GGGAGUUCUACAGUCCGACGAUC … UGGAAUUCUCGGGUGUCAAGG
Oligonucleotide	log2 enrichment
UGGCCCUGGUGGCAUGCGGGGAGGAAGAGGUGGCCUCAUGGAUCGUGGUGGUCCCGGUGGAAUGUUCAGAGGUGGCCGUGGUGGAGACCG	2.96
UCAAGUCCUGUGCUACACAUCGUAUGUACCGAAUCGGUUUGGUUUUUUUGGAGGAAAGUAUUAUGUUACGCCGUUCGGAUCUGCACUUCC	-1.11
UCCUGUGCUACACAUCGUAUGUACCGAAUCGGGGCCCCCCGGGCCCCCCGGGCCCCCCGGAAAGUAUUAUGUUACGCCGUUCGGAUCUGC	-0.889
GUCCUGUGCUACACAUCGUAUGUACCGAAUCAAACCCAAAUUUUUAAAUUUUUUUAAAAAAGUAUUAUGUUACGCCGUUCGGAUCUGCAC	-1.36
GCAGGAAGUAAAAACAAAUGGAAAUGCUUCGGAUAGUGGCAGGGGUGGUGGUUGCUAAGGAAAGGGUGGGAUGGGAGUGGGUAAAGAGUU	1.86
GCAGGAAGUAAAAACAAAUGGAAAUGCUUCGGAUAGUGGCAGGGGUGGGGGUUGGUAAGGAAAGGGUGGGAUGGGAGUGGGUAAAGAGUU	2.98
CAAGUCCUGUGCUACACAUCGUAUGUACCGAAUCGGGUUUUUUUGGGUGGGUGGGAAAGUAUUAUGUUACGCCGUUCGGAUCUGCACUUC	0.89
CCUGUGCUACACAUCGUAUGUACCGAAUCGGGAAAAAAAGGAAAAAAAGGAAAAAAAGGGGAAAGUAUUAUGUUACGCCGUUCGGAUCUG	-1.77
UGGCCCUGGUGGCAUGCGGGGAGGAAGAGGUGGCCUCAUGGAUCGUGGUGGUCCCGGUGGAAUGUUCAGAGCUGGCCGUGGUGGAGACAG	3.83
UAACUUUAGAGGAGGAUCUGAUGGAUAUUGCAGUGGACGUGGAUUUGGGGAUGGCUAUAAUGGGUAUGGAGGAGGACCUGGAGGUGGCAA	-1.33
CAAGUCCUGUGCUACACAUCGUAUGUACCGAAUCGGGUUUUUGGGAGGGUUUGGGAAAGUAUUAUGUUACGCCGUUCGGAUCUGCACUUC	1.54
UAACUUUACAGGAGGAUCUGAUGGAUAUGGCAGUGGACGUGGAUUUGGGGAUGGCUAUAAUGGGUAUGGAGGAGGACCUGGAGGUGGCAA	-1.9
UUUAGCCUGUGGAAUGAUAGCAGUAGGGUCCUGCAAUGGAGAUGUAACUUCCACUAUCCUUCAGACCAUCAUGGAGAAGUCAGAGACUGA	-0.862
UGGCCCUGGUGGCAUGCGGGGAGGAAGAGGUGGCCUCAUGGAUCGUGGUGGUCCCGGUGGAAUGUUCAGAGGUGGCCGUUGUGGAGACAG	3.46

Series 4 — target: CCNA2, cyclin fold, Cln2 fusion (human); method: yeast growth competition, sequencing; medium: yeast; notes: weak parent motif; baseline: not given; reading: higher = stronger binding
Starting sequence: MASTL docking peptide (human); PMIAKNLMCELDE
Change	normalised enrichment score
PMIAINLMCELDE [K5I]	-0.0898
PMWAKNLMCELDE [I3W]	-0.156
PMIAKELMCELDE [N6E]	-0.35
PMIAKNLLCELDE [M8L]	0.168
PMIAPNLMCELDE [K5P]	-0.686
PMIAKNLMCMLDE [E10M]	0.0997
PMIAKLLMCELDE [N6L]	-0.0169
PMIAKNLMTELDE [C9T]	-0.107
PMIGKNLMCELDE [A4G]	-0.335
PMIAKNLMCEMDE [L11M]	-0.566
PMIVKNLMCELDE [A4V]	0.268
PMIAKNLMCEYDE [L11Y]	0.348
PMIAKNFMCELDE [L7F]	-0.362
PMIAKNTMCELDE [L7T]	-0.32
PMIARNLMCELDE [K5R]	0.619
PMIAKNLMCRLDE [E10R]	0.462
PMIAKNLMCEEDE [L11E]	0.061
PMIAKCLMCELDE [N6C]	-0.351
PMIAKNLMCELNE [D12N]	0.0573
PMISKNLMCELDE [A4S]	-0.292
PKIAKNLMCELDE [M2K]	0.398
PMIIKNLMCELDE [A4I]	-0.0808
PMIAKNLMCETDE [L11T]	-0.292
PMIAKNAMCELDE [L7A]	0.0879
PMILKNLMCELDE [A4L]	0.0413

Series 5 — target: CREBRF, bZIP domain (human); method: DHFR protein complementation; medium: yeast; baseline: wild-type JUN-FOS pair; reading: higher = stronger binding
Notes: single substitutions, most at no-binding floor
Starting sequence: JUN, bZIP domain (human); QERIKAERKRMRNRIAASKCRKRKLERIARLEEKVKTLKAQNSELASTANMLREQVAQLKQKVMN; partner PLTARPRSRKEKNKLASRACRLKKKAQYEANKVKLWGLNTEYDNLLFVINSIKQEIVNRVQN
Change	binding fitness [natural log]
L38H	-1.58
A57T	-1.27
A46Y	-1.48
A49V	-1.48
A40I	-1.45
Q55P	-1.42
A46W	-1.46
M51H	-1.36
Q41D	-1.51
Q41N	-1.55
T37V	-1.44
S43Y	-1.53
A49F	-1.49
A40H	-1.59
K36T	-1.27
N42Q	-1.5
A40R	-1.49
L31K	-1.48
E32N	-1.44
S43M	-1.4
V35F	-1.51
L52M	-1.53
T48F	-1.35
V56G	-1.48
N42C	-1.35

Series 6 — method: DHFR PCA, deep sequencing; medium: yeast; added: (+)-ABA 200 µM; baseline: wild-type fitted maximum; reading: higher = stronger binding
Target: ABI1, truncated, D143A, DHFR fusion (Arabidopsis thaliana)
Notes: methotrexate growth selection, single substitutions
Starting sequence: PYL1, truncated, DHFR fusion (Arabidopsis thaliana); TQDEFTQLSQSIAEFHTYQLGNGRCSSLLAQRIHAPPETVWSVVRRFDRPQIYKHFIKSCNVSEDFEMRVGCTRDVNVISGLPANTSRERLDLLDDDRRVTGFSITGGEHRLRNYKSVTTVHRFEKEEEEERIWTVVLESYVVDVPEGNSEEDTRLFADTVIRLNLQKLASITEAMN; partner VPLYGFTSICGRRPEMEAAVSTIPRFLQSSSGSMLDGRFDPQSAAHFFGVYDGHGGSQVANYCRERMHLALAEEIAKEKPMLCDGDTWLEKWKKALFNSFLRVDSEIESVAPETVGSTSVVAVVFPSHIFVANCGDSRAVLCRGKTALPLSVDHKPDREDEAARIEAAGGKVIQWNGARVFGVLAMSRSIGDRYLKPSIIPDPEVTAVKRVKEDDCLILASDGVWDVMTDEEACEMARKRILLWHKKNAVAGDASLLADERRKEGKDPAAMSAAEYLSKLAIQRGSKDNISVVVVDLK
Change	relative binding score [%]
I133Q	102
N165F	9.03
S87D	-13.8
R111T	31.4
L28V	97.3
R88I	109
P146N	34.9
I105M	78.2
L112M	93
Q19M	94
K54R	52
I57H	38.9
R99W	110
L8P	52.8
A35I	35.4
R24D	72.1

Other studies, line by line
Molecule	target	test	test system	setting	scale	endpoint	result
PhoQ, residues 284 288 289 292 302 303 SVTLVV	PhoP, residues 12 14 15 18 19 GHCSL (Escherichia coli, UniProt P23836)	Sort-seq, item: YFP reporter	E. coli	PhoQ-PhoP variant library, added: 10 µM Mg2+	baseline: high Mg2+ state, higher = stronger signaling	fold induction	18

Repeated from above (series 4):
Change	normalised enrichment score
PMIARNLMCELDE [K5R]	0.619
PMIAKNLMCRLDE [E10R]	0.462
PMIAKNLMCEEDE [L11E]	0.061
PMIAKCLMCELDE [N6C]	-0.351
PMIAKNLMCELNE [D12N]	0.0573
PMISKNLMCELDE [A4S]	-0.292
PKIAKNLMCELDE [M2K]	0.398
PMIIKNLMCELDE [A4I]	-0.0808
PMIAKNLMCETDE [L11T]	-0.292
PMIAKNAMCELDE [L7A]	0.0879
PMILKNLMCELDE [A4L]	0.0413
